Results gathered from unrelated publications.
Each numbered part is a random draw from the data of one study; scales do not carry over between parts. Substitutions count along the parent as printed.

Block 1
Target: Phosphate system positive regulatory protein PHO4, full length, GST-tagged (PHO4, Saccharomyces cerevisiae, UniProt P07270, residues 1-312)
Technique: competition protein-binding microarray
Form: double-stranded DNA, one strand shown
Medium: in vitro
Concentration: 2 µM
Notes: whole 60-bp probe, lowest competitor level
With: Cbf1 competitor, 0.05 µM
Reading: higher = stronger binding
Measurement: fluorescence intensity
All sequences stand within: … GTCTTGATTCGCTTGACGCTGCTG
Residues (chain): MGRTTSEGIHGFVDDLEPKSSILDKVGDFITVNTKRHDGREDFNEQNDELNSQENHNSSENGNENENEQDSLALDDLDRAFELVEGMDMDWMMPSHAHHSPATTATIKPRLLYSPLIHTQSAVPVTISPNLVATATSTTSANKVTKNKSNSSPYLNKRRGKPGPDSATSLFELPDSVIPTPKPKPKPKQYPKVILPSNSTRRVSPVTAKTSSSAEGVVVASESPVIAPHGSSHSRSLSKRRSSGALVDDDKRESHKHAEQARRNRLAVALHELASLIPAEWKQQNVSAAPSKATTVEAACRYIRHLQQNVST
TCGCCGATCTCCCCTCACATGTACACTTTTAATCAG: 7020 a.u.
GGCCGCGGAGCGCTGAACGTGATGGTCCATTGTATG: 7970 a.u.
CCCAAACTCCCTTTACACATGCTGCTCCATCGCGGG: 7710 a.u.
AAATTACTAAGTTGTCACAATACTTACCCCGTATGA: 4020 a.u.
AATGGGAACACCTTACGCGTGAGATGGGCCCACCGC: 5370 a.u.
GAGACAGGCACTCACCACGTGAGGAAGAATTAGAGC: 16500 a.u.
AAAAAGCAAGGTAGACAGGCGTGGAACGCGGAGTAG: 7600 a.u.
CGTTGGTGGTGCAAAGTCGTGCTTTAACCCATCGGG: 8100 a.u.
CTTTCCCGATCTTGGCTTGTGGGTGTAGCACATTTG: 5060 a.u.
CAGGGCATAAAGAGGCACATGCGGCGTTTGTAGCCG: 10900 a.u.
CTTCTGAAAGTTTAACACGTGCCGTATCTACGGCTG: 14800 a.u.
CCGATGGGTCCCAGACACGTGGTGAAACGAGGTGCA: 17900 a.u.
GATTATTGGCCAAGTACCGTGACGGTGGTAAGATTG: 4490 a.u.
CGTCCTAGTGATTTACACGTGTTTTCCATGAGGAAG: 17700 a.u.

Block 2
Target: CRIPT, C-terminal peptide
Technique: DHFR complementation, deep sequencing
Medium: yeast
Notes: single substitutions, model-inferred values
Relative to: wild type
Reading: higher = weaker binding
Measurement: binding free energy change
Starting sequence: ERBIN, PDZ domain 1 (human); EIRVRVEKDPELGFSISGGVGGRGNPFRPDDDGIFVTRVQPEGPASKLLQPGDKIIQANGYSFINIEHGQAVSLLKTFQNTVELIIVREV; partner TKNYKQTSV
I16H: 1.79 kcal/mol
H68Q: 1.13 kcal/mol
N25S: 0.758 kcal/mol
Q79R: 0.0139 kcal/mol
Q70C: 0.0086 kcal/mol
R88Q: 0.371 kcal/mol
P44L: 0.846 kcal/mol
I16S: 1.36 kcal/mol
P10S: -0.495 kcal/mol
F14S: 0.692 kcal/mol
P41H: 0.346 kcal/mol
E1D: 0.263 kcal/mol

Block 3
Target: CCNE1, cyclin fold, Cln2 fusion (human)
Technique: yeast growth competition, sequencing
Medium: yeast
Notes: weak parent motif
Relative to: not given
Reading: higher = stronger binding
Measurement: normalised enrichment score
Starting sequence: MICAL3 docking peptide (human); LQLRRQLSFSEDS
S10Y: 0.496
R4M: 0.0347
S10D: 1.13
S10A: 0.52
R5I: 0.181
Q6T: 0.684
Q6F: 0.103
Q6R: 3.16
L7M: 0.26
Q2A: 0.915
R4G: -0.029

Mixed results
PhoQ, residues 284 288 289 292 302 303 SSYNSA  fold induction (PhoP, residues 12 14 15 18 19 QQAYL (Escherichia coli, UniProt P23836); Sort-seq, item: YFP reporter; E. coli; PhoQ-PhoP variant library, with: 10 µM Mg2+; relative to: high Mg2+ state, higher = stronger signaling): 17.8

Some of these lines once more (block 3):
R5I: 0.181
L7M: 0.26
Q6T: 0.684
R4M: 0.0347
S10Y: 0.496
